Published values collected from several papers.
Values joined by “and” are separate records of one study, mostly repeats; a detail may differ. ± gives the spread as reported.
Chain of UniProt Q9C0E2 (whole entry, looked up): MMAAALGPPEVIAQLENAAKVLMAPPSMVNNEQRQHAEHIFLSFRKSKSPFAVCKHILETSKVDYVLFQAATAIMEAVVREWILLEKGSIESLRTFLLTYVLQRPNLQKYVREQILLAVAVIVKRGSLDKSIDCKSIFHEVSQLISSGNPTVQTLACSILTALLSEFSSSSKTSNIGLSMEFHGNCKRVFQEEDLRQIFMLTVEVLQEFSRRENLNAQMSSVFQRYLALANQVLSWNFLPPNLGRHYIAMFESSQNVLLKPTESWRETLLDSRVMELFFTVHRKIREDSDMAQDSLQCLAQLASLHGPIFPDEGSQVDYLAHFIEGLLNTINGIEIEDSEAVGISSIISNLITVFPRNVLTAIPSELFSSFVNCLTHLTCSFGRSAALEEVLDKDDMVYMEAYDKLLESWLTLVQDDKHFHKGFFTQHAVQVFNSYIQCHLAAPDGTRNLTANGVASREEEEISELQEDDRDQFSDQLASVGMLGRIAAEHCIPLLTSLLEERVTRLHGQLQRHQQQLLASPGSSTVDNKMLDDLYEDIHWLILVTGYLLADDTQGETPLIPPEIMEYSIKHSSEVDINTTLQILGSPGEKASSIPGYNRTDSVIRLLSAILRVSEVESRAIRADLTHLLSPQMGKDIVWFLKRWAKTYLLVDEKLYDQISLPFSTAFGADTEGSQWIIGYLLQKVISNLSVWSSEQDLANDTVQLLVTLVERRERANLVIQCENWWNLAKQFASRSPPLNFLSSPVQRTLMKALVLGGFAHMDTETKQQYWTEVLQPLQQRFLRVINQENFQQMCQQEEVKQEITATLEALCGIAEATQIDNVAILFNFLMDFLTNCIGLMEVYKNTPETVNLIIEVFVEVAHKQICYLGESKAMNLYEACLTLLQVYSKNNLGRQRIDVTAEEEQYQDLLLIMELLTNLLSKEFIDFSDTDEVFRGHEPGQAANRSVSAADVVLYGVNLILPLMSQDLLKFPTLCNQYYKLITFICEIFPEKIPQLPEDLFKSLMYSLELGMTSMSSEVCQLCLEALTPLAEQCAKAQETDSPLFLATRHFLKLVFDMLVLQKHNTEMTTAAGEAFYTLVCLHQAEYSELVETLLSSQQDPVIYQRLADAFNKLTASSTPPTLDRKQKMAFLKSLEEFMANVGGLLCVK

Structure (SMILES)	target or system	assay	system	conditions	how to read	quantity	value
Cc1cc(NC(=O)c2cc3c(=O)n4cccc(C)c4nc3n2C)ccc1Br	Vero	MTT	–	6.3 µM, 24 (unit not given)	–	viability	72.5%
COc1cc(Nc2ncc(F)c(Nc3ccc4c(n3)NC(=O)C(C)(C)O4)n2)cc(OC)c1OC	nicotinic acetylcholine receptor	binding	–	–	–	IC50	> 10 µM
O=C(Nc1cccc(SSc2cccc(NC(=O)c3ccccc3)c2)c1)c1ccccc1	Jurkat E6-1	WST-8	–	10 µM, 24 h	reference: control	viability	74.9%
Cc1nn(-c2ccc(Cl)cc2)c2c1C(c1ccc(I)cc1)C(C#N)=C(N)O2 (stereo not drawn)	Vero	MTT	–	100 µM	–	viability	52.9%
COc1cc2c(Oc3ccc4[nH]c(C)cc4c3F)ccnc2cc1OCC1(N)CC1	–	–	paediatric recurrent refractory sarcoma	8 mg	–	grade 3 weight loss	0%
Cn1c(C(=O)Nc2ccc(Cl)cc2)cc2c(=O)n3ccccc3nc21	Vero	MTT	–	25 µM, 24 (unit not given)	–	viability	65.6%
Cc1nn(-c2ccc(Cl)cc2)c2c1C(c1ccc(Br)cc1)C(C#N)=C(N)O2 (stereo not drawn)	Vero	MTT	–	25 µM	–	viability	48.1%
NC(=O)CNC(=O)[C@H](Cc1ccc(F)cc1)NC(=O)[C@@H](Cc1ccccc1)NC(=O)OCc1ccccc1	Vero/SLAM cells	CCK-8	–	100 µM, 24 h, 1% DMSO	–	viability	101.1 ± 0.5%
Cn1cc2cc(C(F)(F)c3nnc4ccc(-c5cnn(C6CC6)c5)nn34)c(F)cc2n1	MKN-45	CCK-8	–	0.0001 µM, 72 h	reference: untreated	viability	99.5% and 99.8% and 99.6%
CC(C)C[C@H](NC(=O)[C@H](C)NC(=O)[C@@H](NC(=O)[C@H](CCCNC(=N)N)NC(=O)[C@H](CC(C)C)NC(=O)[C@H](Cc1c[nH]c2ccccc12)NC(=O)[C@@H]1CCCN1C(=O)[C@@H](N)CCCCN)C(C)C)C(=O)N[C@@H](CS)C(=O)N1CCC[C@H]1C(=O)NCC(=O)O	H9c2	WST-1	–	4 µM, 24 h	–	viability	86% and 86.9% and 108%
C[C@H]1CN(c2n[nH]c3nc(N[C@H]4CC[C@H](NS(=O)(=O)CCC(F)(F)F)CC4)ncc23)CCO1	Exportin-4 (Homo sapiens, UniProt Q9C0E2)	Kinobeads competition, item: XPO4	–	0.16 µM, unit not given	reference: vehicle	remaining binding	1.59
CC(=N)S	THLE-2	MTT	–	400 µM, 72 h, 2D monolayer culture	–	viability	64.4%
CC[C@H](C)[C@H](NC(=O)[C@H](Cc1ccccc1)NC(=O)[C@H](CCC(=O)O)NC(=O)[C@H](CCCNC(=N)N)NC(=O)[C@H](C)NC(=O)[C@H](C)NC(=O)[C@H](CCC(N)=O)NC(=O)[C@H](CCC(=O)O)NC(=O)[C@H](CCC(=O)O)NC(=O)[C@H](CC(C)C)NC(=O)[C@H](Cc1ccc(O)cc1)NC(=O)[C@H](CO)NC(=O)[C@H](CO)NC(=O)[C@@H](NC(=O)[C@H](CC(=O)O)NC(=O)[C@H](CO)NC(=O)[C@@H](NC(=O)[C@H](Cc1ccccc1)NC(=O)[C@@H](NC(=O)CNC(=O)[C@H](CCC(=O)O)NC(=O)[C@H](C)NC(=O)CCc1c[nH]cn1)[C@@H](C)O)[C@@H](C)O)C(C)C)C(=O)N[C@@H](C)C(=O)N[C@@H](Cc1c[nH]c2ccccc12)C(=O)N[C@@H](CC(C)C)C(=O)N[C@H](C(=O)N[C@@H](CCCNC(=N)N)C(=O)NCC(=O)N[C@@H](CCCNC(=N)N)C(=O)N[C@@H](CCCCNC(=O)COCCOCCNC(=O)COCCOCCNC(=O)CC[C@H](NC(=O)CCCCCCCCCCCCCCCCC(=O)O)C(=O)O)C(=O)NCC(=O)NCC(=O)N[C@@H](CO)C(=O)N[C@@H](CCCCNc1c(NCCCCCN(O)C(=O)CCC(=O)NCCCCCN(O)C(=O)CCC(=O)NCCCCCN(O)C(C)=O)c(=O)c1=O)C(=O)O)C(C)C [zirconium-89 labelled]	–	ex vivo gamma counting	rat, stomach	subcutaneous, 3 nmol/kg, 4 h, with: [89Zr]-labelled peptide	–	tissue uptake	0.12 %ID/g
Cc1ccc(NC(=O)c2cc3c(=O)n4cccc(C)c4nc3n2C)cc1Cl	Vero	MTT	–	100 µM, 24 (unit not given)	–	viability	48%
O=S(=O)(c1ccc(O)cc1)c1ccc(O)cc1	HepG2 spheroids	annexin V/PI flow cytometry	–	40 µM, 24 h	–	viability	57.6 ± 10.8%
O=S(=O)(Nc1ccc(-c2n[nH]c(=S)o2)cc1)c1ccc(C(F)(F)F)cc1	MCF7 non-transfected	MTT	–	100 µM, 24 h	reference: untreated	viability	83.3 ± 1.12%
CC[C@H](C)[C@@H]1NC(=O)[C@@H]2CCCN2C(=O)[C@H](CC(C)C)NC(=O)[C@H](CC(C)C)NC(=O)CNC(=O)[C@@H](NC(=O)[C@@H](NC(=O)[C@H](CC(=O)O)NC(=O)CNC(=O)[C@@H](NC(=O)[C@H](C)NC(=O)CNC(=O)[C@H](CCCCN)NC(=O)[C@H](CC(C)C)NC(=O)[C@H](CC(C)C)NC(=O)[C@H](CCCCN)NC(=O)CNC(=O)[C@@H](NC(=O)[C@@H](N)CC(C)C)C(C)C)C(C)C)C(C)C)CSSC[C@@H](C(=O)O)NC1=O	–	RNA-seq, item: Mgam mRNA	mouse traumatic brain injury, frontal cortex and hippocampus	dose not given	reference: TBI plus compound vs TBI	log2 fold change	-3.5
O=C(Nc1ccccc1F)c1cc2c(=O)n3ccccc3nc2n1Cc1ccccc1	Vero	MTT	–	100 µM, 24 (unit not given)	–	viability	37.3%
C[C@@H](O)[C@@H](CO)NC(=O)[C@@H](CCCNC(=N)N)NC(=O)[C@@H]1CCCN1C(=O)[C@@H]1CSSC[C@H](NC(=O)[C@H](Cc2ccccc2)NC(=O)CN2CCN(CC(=O)O)CCN(CC(=O)O)CCN(CC(=O)O)CC2)C(=O)N[C@@H](Cc2ccc(O)cc2)C(=O)N[C@@H](Cc2ccccc2)C(=O)N[C@@H](CCC(N)=O)C(=O)N[C@@H](CC(N)=O)C(=O)N1 [gallium-68 labelled]	–	–	Wistar rat, healthy, Parotid gland	intravenous, 8 MBq, 120 min, mean	–	tissue uptake	0.07 %ID/g
O=c1ccc2ccccc2o1	HepG2	item: cell count	–	concentration not given, 24 h, heat and osmotic shock panel	–	probability of response	0%
O=C(Nc1cccc(OS(=O)(=O)c2ccc(Cl)cc2)c1)c1ccc2ncccc2c1	MCF7 non-transfected	MTT	–	100 µM, 24 h	reference: untreated	viability	85.5 ± 1.13%
O=C/C=C/c1ccccc1	LS174T	MTT	–	3.1 to 50 µg/mL, 48 h, 10% FBS	–	viability	> 90%
CCc1ccc(NC(=O)c2cc3c(=O)n4ccccc4nc3n2C)cc1	Vero	MTT	–	0.4 µM, 24 (unit not given)	–	viability	93%
CO[C@H]1C[C@@H]2CC[C@@H](C)[C@@](O)(O2)C(=O)C(=O)N2CCCC[C@H]2C(=O)O[C@H]([C@H](C)C[C@@H]2CC[C@@H](OC(=O)NCCOCCOCCOCCOCCOCCOCCOCCOCCC(=O)N3CCc4cc(Cn5nc(-c6ccc7oc(N)nc7c6)c6c(N)ncnc65)ccc4C3)[C@H](OC)C2)C[C@@H](O)[C@H](C)/C=C(\C)[C@@H](O)[C@@H](OC)C(=O)[C@H](C)C[C@H](C)/C=C/C=C/C=C/1C	–	–	patients with advanced solid tumours	intravenous, dose not given, any grade	–	incidence of Vomiting TRAE	26.3%
